Experimental data of several laboratories.
Numbered parts are unrelated; each lists some results of a single study.

Set 1 — technique: protein-binding microarray; molecule type: double-stranded DNA, one strand shown; matrix: in vitro; concentration: 2540 nM top; setting: 60-bp whole probe; with: salmon DNA 0.4 mg/ml; relative to: random background probes; reading: higher = stronger binding; quantity: fitted relative affinity; constant ends, left off below: GCCTAGCAC … GTCTTGATTCGCTTGACGCTGCTG
Target: Interferon regulatory factor 3, full length, phosphomimetic (IRF3, Homo sapiens, UniProt Q14653, residues 1-427, S386D/S396D/S398D/S402D/T404D/S405D)
Residues (chain): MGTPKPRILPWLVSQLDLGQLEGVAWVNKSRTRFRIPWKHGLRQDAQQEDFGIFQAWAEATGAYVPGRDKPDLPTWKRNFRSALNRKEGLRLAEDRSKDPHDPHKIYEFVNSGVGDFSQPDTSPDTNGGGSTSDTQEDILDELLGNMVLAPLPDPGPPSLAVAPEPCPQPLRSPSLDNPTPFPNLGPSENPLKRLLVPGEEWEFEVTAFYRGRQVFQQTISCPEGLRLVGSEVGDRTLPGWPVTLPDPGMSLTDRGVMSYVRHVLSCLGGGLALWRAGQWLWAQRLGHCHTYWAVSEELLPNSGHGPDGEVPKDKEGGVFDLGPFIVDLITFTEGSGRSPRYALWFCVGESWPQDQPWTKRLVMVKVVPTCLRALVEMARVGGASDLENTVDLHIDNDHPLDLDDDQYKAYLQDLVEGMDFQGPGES
Strand = TTAGATATCGGATATCGATTAGTGCTA; result = 0.768 z-score
Strand = GACGCTATCCTTCTCCTGACGTGCTAG; result = 4.26 z-score
Strand = TCAAGTTTTCATTTTCTACTGTGCTAG; result = 3.8 z-score
Strand = ATAGATTTCGGGACTGGATTAGTGCTA; result = 1.44 z-score
Strand = TTAGGACTGGACACTGGGTTAGTGCTA; result = -0.839 z-score
Strand = ACTAATTTTCAATTCCTGAAGTGCTAG; result = 1.58 z-score
Strand = CACCATCTAGTTCTGCTTTGGTGCTAG; result = 0.709 z-score
Strand = AACGGTCTCGGTATCGGGACGTGCTAG; result = 1.74 z-score
Strand = TTAGATCTCAGTATCTATTAGTGCTAG; result = 0.559 z-score
Strand = TTTGATTTCAGTCTCGATTAGTGCTAG; result = 2.52 z-score
Strand = TTAGGTATCGGCTATCGGTTAGTGCTA; result = 0.425 z-score
Strand = GACGGACTGCGTATCGGGACGTGCTAG; result = -0.0827 z-score
Strand = TTCGGTATCGGTATCGGTTAGTGCTAG; result = 5.71 z-score
Strand = GACGGTCTCCTACTCCTGACGTGCTAG; result = 2.07 z-score
Strand = TTAGACCTCAGTATCGATTAGTGCTAG; result = 0.336 z-score
Strand = TTAGGTATCGGGTTTCAGTTAGTGCTA; result = 2.66 z-score
Strand = CACGGACTGGGACTGGGGACGTGCTAG; result = -0.87 z-score
Strand = TACGGTTTCGGTCTCGGGACGTGCTAG; result = 8.13 z-score
Strand = TTAGAGCTGGGGACTGGATTAGTGCTA; result = -1.22 z-score
Strand = CTCATTTTCGTTTTGTGTCTGTGCTAG; result = 4.53 z-score
Strand = TCCTTCCACCATCTGATCAGGTGCTAG; result = 0.998 z-score
Strand = CACCCTTGGAAGTATGACTCTGTGCTA; result = -0.00796 z-score
Strand = CTTACTTCCCAATTGTCTTTGTGCTAG; result = 2.79 z-score
Strand = GACGATATCGGGACGGGAGACGTGCTA; result = 0.0242 z-score
Strand = GACGATTTCAGTTTTGAGACGTGCTAG; result = 3.08 z-score

Set 2 — technique: protein-binding microarray; molecule type: double-stranded DNA, one strand shown; matrix: in vitro; concentration: not given; reading: higher = stronger binding; quantity: E-score
Target: Max dimerization protein 1, bHLH-zipper, MAX partner unstated (MXD1, Homo sapiens, UniProt Q05195, residues 56-136)
Setting: k-mer, scored over probes, only values ≥0.25
Residues (chain): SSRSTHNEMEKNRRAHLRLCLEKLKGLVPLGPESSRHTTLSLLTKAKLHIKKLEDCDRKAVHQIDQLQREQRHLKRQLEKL
Strand = CATGATTC; result = 0.254
Strand = CCCCACAA; result = 0.257
Strand = GGGGTGGA; result = 0.302
Strand = CACACGGG; result = 0.302
Strand = ACGGGGGG; result = 0.321
Strand = CCACGCAC; result = 0.34
Strand = CACGGGTA; result = 0.292
Strand = ATGTGCAG; result = 0.267
Strand = CGTGGGAG; result = 0.326
Strand = CGTGTGTA; result = 0.413
Strand = CATGCTGC; result = 0.387
Strand = GCATGTGA; result = 0.425
Strand = GCACGGGA; result = 0.252
Strand = AAGGGGGA; result = 0.272
Strand = GCACGTTA; result = 0.331
Strand = ACATGCGG; result = 0.448
Strand = AGGGCGTG; result = 0.332
Strand = CATGAGTA; result = 0.271
Strand = CGCCATGC; result = 0.359
Strand = ATCACATG; result = 0.445
Strand = ACGCGGGA; result = 0.314
Strand = CACGTTTA; result = 0.308
Strand = ACATGTCA; result = 0.254
Strand = CCCCCACG; result = 0.385
Strand = GCGTGAGA; result = 0.278

Set 3 — technique: RNA Bind-n-Seq; molecule type: RNA; matrix: in vitro; concentration: 365 nM; relative to: no-protein control; reading: higher = stronger binding; quantity: RBNS enrichment (R)
Target: RNA binding protein fox-1 homolog 2, RRM domain, GST-SBP tag (RBFOX2, Homo sapiens, UniProt O43251-10, residues 100-194)
Setting: natural RNA segment, single round, ends assumed
Constant ends, left off below: GGGAGUUCUACAGUCCGACGAUC … UGGAAUUCUCGGGUGCCAA
Construct (chain): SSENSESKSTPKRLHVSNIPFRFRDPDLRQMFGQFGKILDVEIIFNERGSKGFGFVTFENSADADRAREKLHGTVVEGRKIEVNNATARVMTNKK
Strand = UUGUUUCCAAUGUCGGGUUCACUUAAAGGAUUUGACUUACCACCAGAGCAUAGAAAAGCAUGCAAGGAAGACCAGAUGGGCUUAGCAUUGGGAAGACAGAGGGCAAGGAG; result = 10.7
Strand = CCUUUUAUUUUUUCCAAUAAAAAAGCAGUGGGAUGAAAAUUGCUUUGAUAUAUAGCAGGUAACAUUGAAGCUAUUCCAUAGCACUUAACUGUAGUGAAUACUGUGUCACC; result = 0.393
Strand = UUAUUUUUGCACAAAUGACUCUUUUAUAUUUAAUUCGACUUCAUUGCCUCCCUUCUUAAAGCUAGCAGGCUCAGUUUACAAACCUGUGAGCUACUGUUGGCUGCUGCCCU; result = 0.579
Strand = CAACCUCCCACUGCUGGAGUGCGAGUGGGAAUCAGAGCCUCCUGAAGCCUCUGGGAACUCCUCCUGUGGCCACCACCAAAGGAUGAGGAAUCUGAGUUGCCAACUUCAGG; result = 0.291
Strand = CUUGAUGGCUUUGCGGAGCCCCUGCAAAGUGUCACUAGUCAAUGGGAACAAGAGGAAUGUCCCCUGGUCUGGAAGUGUGCUAAGUGGAAGGAAUGGGCUGUGAGACUGGA; result = 1.03
Strand = UGGCUGUCCACGUGAGGUCAUAGUCACAGCAUGGAGGCCUUGAGAGCCUGGCCAGGUGGCCCUCCACGUGAGGUCAUGGUCACAGCAUGGGGGCCUUGAGUGCCUGGCCA; result = 3.23
Strand = CUAUUCUGGCAAAGGCUGAGGUGGGUCAAGAGGGUGAGGCUGGCCAGUUUGAUGGAGAAAAAGUCAAAGACGGACAGUGUGUUAAAGAACUGGAGGUGCCUGUGCACACU; result = 0.543
Strand = GAAGGGUCUUCACUCUGCCAUUCAGGGAUAAAGUUUAAUUUUAUUUUUCUACACAUUUUGCCAGGUCAGGCAUUUUGCUAGUAAGCAGGAUGCCCCCAACUCUCCCUGCC; result = 0.26
Strand = AUUGCUACAGAGAUAACUGCCCUGUAGUAUCCCAAUGGAUAUCACUCCCAGUCUCAAAUUGGGCUGGGUAUGGCGGUGUAUAUGCAUGGGAAGCGUCUUGGGGAGGGUGG; result = 1.3
Strand = UGGCAGGAUUCUUUCUUGAAUUAAUAUUAAUCCUUAAAUUGAUUUUUCUGGGAUUAUACAAAUUCCUUUUUAUAUAAAAGUAUAUUGUUUAAAACAGUAGCUAUAGCCAU; result = 0.843
Strand = UGACUUAUGUGGUAAAAUGUUUGAGAGUUUGCACUCAAUUUUAAAGAAUUUGCAGUUUCUAACAAGGUGAAGAACAGCUAUAGGAUCUAAAGUUCCAUUACAGCUUACUG; result = 0.46
Strand = ACUGUCCCUCCUUGAGCACCAGCCCCACCCAAGCAAGCAGACAUUUAUCUUUUGGGUCUGUCCUCUCUGUUGCCUUUUUACAGCCAACUUUUCUAGACCUGUUUUGCUUU; result = 0.514

Set 4 — technique: protein binding microarray; molecule type: double-stranded DNA, one strand shown; matrix: in vitro; concentration: not given; relative to: not given; reading: higher = stronger binding; quantity: E-score
Target: Histone acetyltransferase KAT6A, both winged helices, GST fusion (KAT6A, Homo sapiens, UniProt Q92794, residues 1-181)
Setting: 8-mer, flanks averaged, mean of 2 arrays, mostly near background
Target sequence (chain): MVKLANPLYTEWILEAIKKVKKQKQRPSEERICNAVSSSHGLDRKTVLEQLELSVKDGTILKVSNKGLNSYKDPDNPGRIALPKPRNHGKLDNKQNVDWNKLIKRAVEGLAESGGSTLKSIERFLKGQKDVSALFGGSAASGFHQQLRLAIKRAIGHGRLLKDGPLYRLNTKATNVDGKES
Strand = CCGACGAG; result = 0.0833
Strand = CTATAGGC; result = 0.0248
Strand = CATTCTAG; result = -0.176
Strand = AAAATCTA; result = -0.0156
Strand = GGGTCTCA; result = 0.0164
Strand = ATCATCGC; result = 0.11
Strand = GGAGTACA; result = -0.0347
Strand = TAGAGCTA; result = -0.167
Strand = CGGCACCC; result = 0.173
Strand = GTCGGCGA; result = 0.308
Strand = ACCCGCGA; result = 0.204
Strand = AGGCTTGC; result = -0.113
Strand = AATCAGGA; result = -0.065
Strand = AGAATAGG; result = -0.168
Strand = CAATATAA; result = -0.000255
Strand = CGCCATTC; result = 0.0313
Strand = AGTAATCA; result = 0.00123
Strand = GTGGGGAA; result = -0.0829
Strand = CCAATACG; result = 0.0405
Strand = CACTCGCA; result = 0.0657
Strand = ATGGCCGC; result = 0.238
Strand = TAAACGAA; result = -0.0127
Strand = CAGGTTGC; result = -0.0761
Strand = CGTCTCCA; result = 0.133
Strand = CAATGGCC; result = -0.134

Repeated from above (set 1):
Strand = TCAAGTTTTCATTTTCTACTGTGCTAG; result = 3.8 z-score
Strand = ATAGATTTCGGGACTGGATTAGTGCTA; result = 1.44 z-score
Strand = TTAGGACTGGACACTGGGTTAGTGCTA; result = -0.839 z-score
Strand = ACTAATTTTCAATTCCTGAAGTGCTAG; result = 1.58 z-score
Strand = CACCATCTAGTTCTGCTTTGGTGCTAG; result = 0.709 z-score
Strand = AACGGTCTCGGTATCGGGACGTGCTAG; result = 1.74 z-score
Strand = TTAGATCTCAGTATCTATTAGTGCTAG; result = 0.559 z-score
Strand = TTTGATTTCAGTCTCGATTAGTGCTAG; result = 2.52 z-score
Strand = TTAGGTATCGGCTATCGGTTAGTGCTA; result = 0.425 z-score
Strand = GACGGACTGCGTATCGGGACGTGCTAG; result = -0.0827 z-score
Strand = TTCGGTATCGGTATCGGTTAGTGCTAG; result = 5.71 z-score
Strand = GACGGTCTCCTACTCCTGACGTGCTAG; result = 2.07 z-score
